Experimental data from different studies.
Parts stem from different laboratories: compare values within a part only. Positions count from the first letter of the parent shown.

Block 1 — method: protein-binding microarray; form: double-stranded DNA, one strand shown; matrix: in vitro; concentration: 0.8 µM; notes: whole 60-bp probe, no competitor; reading: higher = stronger binding; all sequences stand within: … GTCTTGATTCGCTTGACGCTGCTG
Target: Centromere-binding protein 1, full length, N-terminal tag (CBF1, Saccharomyces cerevisiae, UniProt P17106, residues 1-351)
UniProt P17106, sequence (whole entry, looked up): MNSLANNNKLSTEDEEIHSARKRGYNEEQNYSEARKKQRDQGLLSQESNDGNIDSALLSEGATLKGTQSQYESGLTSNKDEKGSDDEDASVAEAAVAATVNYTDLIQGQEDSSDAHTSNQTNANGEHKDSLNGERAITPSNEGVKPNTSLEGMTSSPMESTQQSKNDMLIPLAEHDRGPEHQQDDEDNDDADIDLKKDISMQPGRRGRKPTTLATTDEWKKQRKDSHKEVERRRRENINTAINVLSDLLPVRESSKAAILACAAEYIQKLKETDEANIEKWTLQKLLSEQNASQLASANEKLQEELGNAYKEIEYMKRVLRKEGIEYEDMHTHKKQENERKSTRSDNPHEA
Sequence	fluorescence intensity [a.u.]
CTAATTTCTTTTCATCACGTGCTATAAAAATAATTC	20100
CTAATTATCTAACATCAGATGGTTTGTCTTTCATTC	591
CCTAACTACTATAGTGACGGTACATAGCTTCGTACA	476
CTATATTGAGTTTGCCACATGAGCGGTATACGATTC	557
CTACTCTGCTGATTGGACGTGGGGTCGTACTATTTC	538
CTAGGTCTTCTTCATCACGCCCATATTCATTGTTTC	663
GAAAATTGCTAAGCACACATGACTTCATACTTGTAG	1090
GAATATGGAAAGCTTACGCTGATGTAAGTAATGTAG	493
CTACACGTGGAGCATCATGAAAAAAACTGGTAATTC	1450
GAATCTCTGCGTCTTCACATGCGCGGGACAACTTAG	596
CCTAACTACTATAATCAGGTGTAATAGCTTCGTACA	661

Block 2 — method: universal PBM; form: double-stranded DNA, one strand shown; matrix: in vitro; concentration: not given; reading: higher = stronger binding
Target: Sal-like protein 4, full length isoform B (SALL4, Homo sapiens, UniProt Q9UJQ4-2, residues 1-616)
Notes: 8-mer, flanks averaged, mean of replicates
Sequence	E-score
ACGCTGCG	-0.254
CACCATTC	0.026
ACCTTGCC	-0.106
GCAACTGA	-0.155
ACTCTTAG	-0.0498
CGAGGGAA	-0.0773
AATCAGCA	0.164
CGGCCGGC	-0.367
CCGCTTCA	-0.186
CAGGGCAC	-0.307
ACACTTGC	0.136

Block 3 — target: CCNF, cyclin fold, Cln2 fusion (human); method: yeast growth competition, sequencing; matrix: yeast; notes: weak parent motif; baseline: not given; reading: higher = stronger binding
Starting sequence: MASTL docking peptide (human); PMIAKNLMCELDE
Substitution	normalised enrichment score
PMIAKNLMCELEE [D12E]	-0.239
PMIAKILMCELDE [N6I]	0.358
PMNAKNLMCELDE [I3N]	-0.388
PMIAKNLMCRLDE [E10R]	0.458
PMIAKKLMCELDE [N6K]	0.587
PMIAKNDMCELDE [L7D]	-0.617
PMIAKNLYCELDE [M8Y]	-0.328
PMIIKNLMCELDE [A4I]	0.242

Other studies, line by line
Substance	target	assay	test system	setting	how to read	endpoint	result
PhoQ, residues 284 288 289 292 302 303 ALVSVA	PhoP, residues 12 14 15 18 19 NQFFI (Escherichia coli, UniProt P23836)	Sort-seq, item: YFP reporter	E. coli	PhoQ-PhoP variant library, with: 10 µM Mg2+	baseline: high Mg2+ state, higher = stronger signaling	fold induction	9.19

Excerpt of the above (other studies, line by line):
Substance	target	assay	test system	setting	how to read	endpoint	result
PhoQ, residues 284 288 289 292 302 303 ALVSVA	PhoP, residues 12 14 15 18 19 NQFFI (Escherichia coli, UniProt P23836)	Sort-seq, item: YFP reporter	E. coli	PhoQ-PhoP variant library, with: 10 µM Mg2+	baseline: high Mg2+ state, higher = stronger signaling	fold induction	9.19
